# Measured values pooled from the literature.
# Lines come from different studies, so protocols differ. ± gives the spread as reported.
Structure (SMILES),assay,test system,conditions,how to read,quantity,result
N#Cc1cc(NC(=O)[C@H]2c3ccccc3C(=O)N(CC(F)(F)F)[C@@H]2c2cccnc2)ccc1F,,human,"900 mg, 10 h post dose",,venous methemoglobin,1.7%
CC(C)C[C@H](NC(=O)[C@@H](N)C(C)C)C(=O)N[C@@H](CCCNC(=N)N)C(=O)N[C@@H](Cc1c[nH]c2ccccc12)C(=O)N[C@@H](CO)C(=O)N[C@@H](CCCNC(=N)N)C(=O)N[C@@H](CCCCN)C(=O)N[C@@H](CC(C)C)C(=O)N1CCC[C@H]1C(=O)N[C@@H](CS)C(=O)N[C@H](C(=O)N[C@@H](CO)C(N)=O)C(C)C,"12G5 competition, SUP-T1 cells",human plasma,"concentration not given, 8 h",,remaining activity,7 ± 1%
CC(C)(C(=O)N1CCOc2c(C#N)cncc2C1)C(F)F,item: general and administration site conditions,"healthy humans, both sexes","oral, 20 mg single dose",,subjects with TEAE,0%
Cl.[2H]C([2H])([2H])CC(=O)c1cnc(NC(=O)C2CC2)cc1Nc1cccc(-c2ncn(C([2H])([2H])[2H])n2)c1OC,geometric mean,human,"oral, 17.5 mg single dose, fasted, liquid",,elimination rate constant,2.44e-05 s⁻¹
CNC(=O)c1cc(Oc2ccc(NC(=O)Nc3cc(C(C)(C)C)nn3-c3ccc4ncccc4c3)c(F)c2)ccn1,"item: any AESI, worst grade ≥2",human patients,"oral, dose not given, medium AUC(0-4 h) subgroup, cycles 1-2",,patients with adverse events,14%
C/C(=N\c1ccc(O)cc1)c1cc2ccccc2n1C,,"rat, plasma","4 h, room temperature",,bench-top stability,stable
COc1cc(Nc2ncc3c(n2)-c2ccc(Cl)cc2C(c2c(F)cccc2OC)=NC3)ccc1C(=O)O,population PK modelling,"cancer patients East Asian, plasma",oral,reference: non-East Asian,relative bioavailability increase,48%
O=C(CC1CCOCC1)Nc1ccc(C2CCCCC2)cc1,,dog liver microsomes,1 µM,,hepatic clearance,23 mL/min/kg
COc1cc2c(Nc3ccc(Cl)c(Cl)c3F)ncnc2cc1OC[C@@H]1C[C@@H]2CN(C)C[C@@H]2C1,,FVB Mdr1a/b(-/-) Bcrp1(-/-) mouse,"oral, 70 mg/kg, 2 h",,unbound plasma concentration,31.5 ng/mL
CN(C)CCC(=O)Nc1ccc([C@H]2[C@@H](F)[C@@H](F)C[C@@H](F)[C@H]2F)cc1,liver microsome stability,human liver microsomes,"1 µM, without NADPH",,hepatic clearance,3.9 mL/min/kg
O=C(Nc1ccc(OC(F)(F)Cl)cc1)c1cnc(N2CC[C@@H](O)C2)c(-c2ccn[nH]2)c1,"per treatment cycle, item: absolute neutrophil decrease",human patients,"oral, dose not given, 28 day cycle",,grade ≥3 event rate,4.3%
C[C@@H]1OC(=O)[C@H](Cc2ccccc2)[C@H]1O,soil adsorption,soil,"pH 6.9, organic carbon 0.8 %",,KFoc,215 mL/g
C=CC(=O)NC1CCN(c2ncc3ncnc(Nc4ccc(Oc5ccc6c(c5)ncn6C)c(C)c4)c3n2)CC1,item: total radioactivity,"healthy male volunteers, urine and faeces","oral, 60 mg, 240 h, 14C-labelled",,dose recovered as radioactivity,89.5%
NC(=O)c1[nH]cnc1N,,"human patients, plasma","IV infusion over 1 h, 1000 mg/m^2 DTIC, cycle 1 day 1, DTIC alone",,AUC(0-8h),20800 ng·h/mL
NC(=O)N1c2ccccc2C=Cc2ccccc21,item: neck pain,human male,"oral, dose not given, CTCAE on-treatment AEs",,adverse events incidence,0%
CC(C(=O)NCC(=O)NCC(CNC(=O)CNC(=O)C(C)N1CCN(CC(=O)[O-])CCN(CC(=O)[O-])CCN(CC(=O)[O-])CC1)(CNC(=O)CNC(=O)C(C)N1CCN(CC(=O)[O-])CCN(CC(=O)[O-])CCN(CC(=O)[O-])CC1)CNC(=O)CNC(=O)C(C)N1CCN(CC(=O)[O-])CCN(CC(=O)[O-])CCN(CC(=O)[O-])CC1)N1CCN(CC(=O)[O-])CCN(CC(=O)[O-])CCN(CC(=O)[O-])CC1.[Gd+3].[Gd+3].[Gd+3].[Gd+3] (stereo not drawn),ICP-MS,"rat, femur diaphysis","intravenous, 0.6 mmol Gd/kg, 1 week",,Gd concentration,0.5 nmol/g
Cn1cc(C(N)=O)ccc1=O,ultrafiltration,normal rat serum,37 °C,,serum protein binding,70 ± 9%
CCCOc1ccc(NC(=O)CN2CCN(C)CC2)cc1-c1nc(CC)c(CC)c(=O)[nH]1,,healthy Chinese men,"10 mg, supine or semi-supine, added: alcohol 0.5 g/kg",reference: baseline,maximal decrease in diastolic BP,-12.6 ± 5.45 mmHg
CCOc1c([C@H](C)n2nc(C)c3c(N)ncnc32)cc(Cl)c(F)c1[C@@H]1CNC(=O)C1,,"patients, monotherapy","oral, 45 mg once daily, cycle 1 day 15",,Cmin,864 ± 690 nM
COc1ccc2[nH]c([S+]([O-])Cc3ncc(C)c(OC)c3C)nc2c1 (stereo not drawn),,"healthy Chinese volunteers CYP2C19 NM, plasma","oral, 20 mg single dose, enteric-coated capsules",,AUC(0-t),469 ± 530 ng·h/mL
CCc1cc(C(=O)NC)c2nccc(N3CCc4c(cc(Cn5ccnc5)cc4-c4cn(C)nc4C(F)(F)F)C3=O)c2c1,,"CD-1 mouse, male, plasma","oral, 50 mg/kg",,AUC extrapolated,0%
CCO[C@H]1CCN(Cc2c(OC)cc(C)c3[nH]ccc23)[C@H](c2ccc(C(=O)O)cc2)C1,,"human moderate hepatic impairment, plasma","oral, 200 mg single dose, median",,unbound Tmax,2.3 h
O=C(COCC(F)F)Nc1ccc(C2CCCCC2)cc1,liver microsome stability,dog liver microsomes,1 µM,,hepatic clearance,29 mL/min/kg
O=C(Nc1nc2cccc(-c3ccc(CN4CCS(=O)(=O)CC4)cc3)n2n1)C1CC1,item: hypotension,human rheumatoid arthritis patients,"oral, 150 mg once daily, 4 weeks, regardless of relatedness",,treatment-emergent adverse events,0%
Nc1ccccc1/C=C/C(=O)c1ccccc1,,toluene,20 °C,,excitation maximum,405 nm
Cc1ccc([C@@H]2O[C@H](CO)[C@@H](O)[C@H](O)[C@H]2O)cc1Cc1ccc(-c2ccc(F)cc2)s1,,Japanese type 2 diabetes patients,"400 mg, day 4, 24 h urine collection",reference: baseline,urinary calcium excretion change,-23.2 mg
C=CC(=O)Nc1cc(Nc2nccc(-c3cn(C4CC4)c4ccccc34)n2)c(OC)cc1N(C)CCN(C)C,long-term storage stability,rat plasma,"160 ng/mL, 3 weeks, -80 °C",reference: nominal concentration,relative error,-10.6%
Nc1ncnc2c1ncn2[C@H]1C[C@@H]2OP(=O)(O)OC[C@H]3O[C@@H](n4cnc5c(N)ncnc54)C[C@@H]3OP(=O)(O)OC[C@H]2O1,,"non-tumor-bearing mice, serum","intravenous, 1 mg/kg, toxicity study",,AST/ALT ratio,3.09 ± 0.42
CN(Cc1cccnc1)C(=O)c1ccc(C2CCCCC2)cc1,liver microsome stability,cynomolgus liver microsomes,1 µM,,hepatic clearance,38 mL/min/kg
CCCCCNC(=O)N1CCC(CN(Cc2ccc(Cl)cc2)Cc2ccc([N+](=O)[O-])s2)C1 (stereo not drawn),item: RDW,"C57BL/6 mouse, blood","100 mg/kg twice daily, 7 days",,blood cell fraction,17 ± 0.5%
C[C@]12CC[C@@H]3c4ccc(O)cc4CC[C@H]3[C@@H]1CCC2=O,,whole cow milk,2000 nM nominal,,dose fraction in milk fat,74.2%
N#C[C@@]1(c2ccc3c(N)ncnn23)O[C@H](CO)[C@@H](O)[C@H]1O,plasma protein binding,dog plasma,"10 µM, time not given",,recovery,102%
Cc1cc(C)c(CNC(=O)c2cc(Cl)c3c(c2C)O[C@@](C)([C@H]2CC[C@H](N(C)C)CC2)O3)c(=O)[nH]1,CTCAE v4.0,"human, relapsed/refractory NHL","oral, 200 mg once daily, onset after cycle 1 day 1",,patients with serious TEAEs,29.2%
CCCCC1=NC2(CCCC2)C(=O)N1Cc1ccc(-c2ccccc2S(=O)(=O)Nc2noc(C)c2C)c(COCC)c1,,"healthy adult volunteers, plasma","oral, 400 mg, 14 days repeated dosing, fasted, crushed tablet",,Cmax,6470 ng/mL
OC[C@H]1O[C@@H](c2ccc(F)c(Cc3cc4ccccc4s3)c2)[C@H](O)[C@@H](O)[C@@H]1O,,Japanese type 1 diabetes patients,"oral, 25 mg/day",reference: patients,hypoglycaemia adverse events,5%
CCc1cc2ncc(CN3CCN(c4ccc(C(=O)NC)nc4)CC3)cc2[nH]c1=O,,"male rat, blood","oral, 25 mg/kg/day, 4 weeks",reference: vehicle control,Lymphocytes count ratio,0.64
CNCc1ccc(-c2[nH]c3cc(F)cc4c3c2CCNC4=O)cc1,,human patients,"oral, 600 mg twice daily, grade 5",,dysgeusia incidence,0%
COc1ncc(-c2nc3c(n2C(C)C)[C@H](c2ccc(Cl)cc2)N(c2cc(Cl)cn(C)c2=O)C3=O)c(OC)n1,"LC-MS/MS, noncompartmental","human, plasma","oral, 2 mg, C1D8, low-dose, geometric mean",,Cmax,18.8 ng/mL
Cc1ccc(C(=O)N(CCCN)C(c2nc3snc(C)c3c(=O)n2Cc2ccccc2)C(C)C)cc1 (stereo not drawn),mucosal inflammation grade ≥3 (CTCAE),human patients,"intravenous, 16 mg/day",,patients with adverse event,0%
O=C(Cn1ccnc1)Nc1ccc([C@H]2[C@@H](F)[C@@H](F)C[C@@H](F)[C@H]2F)cc1,,human liver microsomes,"1 µM, without NADPH",,hepatic clearance,3.9 mL/min/kg
NC1(C(=O)N[C@@H](CCO)c2ccc(Cl)cc2)CCN(c2nc[nH]c3nccc2-3)CC1,,metastatic CRPC patients,"dose not given, any grade, treatment-related, all doses, added: enzalutamide 160 mg daily",,incidence of Anaemia,6.7%
NS(=O)(=O)c1cccc(-c2ccc(C3CCCCC3)cc2)c1,hepatocyte stability,cryopreserved mouse hepatocytes,1 µM,,hepatic clearance,42 mL/min/kg
O=C(CCCN1CCCN(c2ccc(Cl)cc2)CC1)c1ccc(F)cc1,"catalepsy, bar test",Sprague-Dawley rat,"intraperitoneal, dose not given, 60 min",,time on bar,< 20 s
O=C(N[C@H](Cc1c[nH]c2ccccc12)C(=O)Nc1ccncc1)c1ccc(N2CCN(c3ccc(F)c(F)c3)CC2)cc1F,,"Swiss Webster mouse, female, muscle","oral, 50 mg/kg, 2 h, 20% HPβCD vehicle",,concentration,60 nM
COc1cccc(OC)c1-c1cc(C(=O)NC2(C(=O)O)C3CC4CC(C3)CC2C4)nn1-c1ccc(C(=O)N(C)CCCN(C)CCCN(C)C(=O)CN2CCN(CC(=O)[O-])CCN(CC(=O)[O-])CCN(CC(=O)[O-])CC2)cc1C(C)C.[177Lu+3] (stereo not drawn),,"mouse, HT-29 xenograft, liver",168 h post injection,,tissue uptake,0.244 %ID/g
C#C[C@]1(CO)O[C@@H](n2cnc3c(N)nc(F)nc32)C[C@@H]1O,,"human, plasma","oral, 400 mg single dose, extrapolated beyond 96 h",,AUC(0-168 h),47.5 µM·h
O=C(O)CCCOc1ccc([18F])cc1-c1cc(-c2ccccc2C(F)(F)F)n(-c2ccccc2)n1,18F biodistribution,"male ddY mouse, whole blood","intravenous, 2.1 MBq, 1 min",,blood radioactivity,0.32 ± 0.12 SUV
Cn1cc(-c2cn3nccc3c(-c3cnn([C@]4(CC#N)C[C@@H](C#N)C4)c3)n2)cn1,,"healthy humans fed, plasma","oral, 1200 mg once daily, day 10, geometric mean",reference: day 10 over day 1,observed accumulation ratio,0.9
CN(Cc1cc(C(F)(F)F)cc(C(F)(F)F)c1)c1nc2ccccc2c(=O)s1,"chemical stability, HPLC-MS",borate buffered saline,"pH 10.2, no N-acetyl-lysine",,degradation rate constant,0 h⁻¹
CCN1/C(=C/C(C)=O)Sc2ccc(F)cc21,,cynomolgus monkey,"oral, 10 mg/kg, 6 h post-dose",reference: pre-dose,QTc interval change,101 ± 2.5%
Cc1ccc(O)c(-n2nc3ccccc3n2)c1,,"human, both sexes","topical, dose not given, spray sunscreen, age 3-6 years, mean",,daily dermal uptake,1100 ng/kg body weight/day
C=CCN1CC(=O)N2[C@@H](Cc3ccc(O)cc3F)C(=O)N(Cc3cccc(N4CC(N5CCN(CC)CC5)C4)n3)C[C@@H]2N1C(=O)NCc1ccccc1,,advanced solid tumour patients,"oral, 120 mg twice daily, grade ≥3, dose-escalation",,treatment-related nausea,0%
c1ncc(-c2ccc(C3CCCCC3)cc2)cn1,liver microsome stability,cynomolgus liver microsomes,1 µM,,hepatic clearance,36 mL/min/kg
O=C(c1ccc(F)cc1)C1CCN(CCn2c(=O)[nH]c3ccccc3c2=O)CC1,,dog liver microsomes,,,hepatic clearance,18.2 mL/min/kg
O=C(Nc1ccc([C@H]2[C@@H](F)[C@@H](F)C[C@@H](F)[C@H]2F)cc1)c1cn[nH]c1,,human liver microsomes,"1 µM, without NADPH",,hepatic clearance,3.9 mL/min/kg
O=C(O)CCC(=O)O.[2H]C([2H])([2H])Oc1cc(C)c2[nH]ccc2c1CN1CC[C@@H](C2CC2)C[C@H]1c1ccc(C(=O)O)cc1,ECG,healthy Chinese subjects,"oral, 50 mg twice daily, multiple ascending dose",,TEAE T wave abnormality,12.5%
CN1C(=O)[C@@H](NC(=O)c2nnc(Cc3ccccc3)[nH]2)COc2cccnc21,phase I single ascending dose,"human, male and female","oral, 30 mg, fasted",,TEAE leading to permanent discontinuation,0%

# For quick reference, copied from above:
Structure (SMILES),assay,test system,conditions,how to read,quantity,result
CCOc1c([C@H](C)n2nc(C)c3c(N)ncnc32)cc(Cl)c(F)c1[C@@H]1CNC(=O)C1,,"patients, monotherapy","oral, 45 mg once daily, cycle 1 day 15",,Cmin,864 ± 690 nM
COc1ccc2[nH]c([S+]([O-])Cc3ncc(C)c(OC)c3C)nc2c1 (stereo not drawn),,"healthy Chinese volunteers CYP2C19 NM, plasma","oral, 20 mg single dose, enteric-coated capsules",,AUC(0-t),469 ± 530 ng·h/mL
CCc1cc(C(=O)NC)c2nccc(N3CCc4c(cc(Cn5ccnc5)cc4-c4cn(C)nc4C(F)(F)F)C3=O)c2c1,,"CD-1 mouse, male, plasma","oral, 50 mg/kg",,AUC extrapolated,0%
CCO[C@H]1CCN(Cc2c(OC)cc(C)c3[nH]ccc23)[C@H](c2ccc(C(=O)O)cc2)C1,,"human moderate hepatic impairment, plasma","oral, 200 mg single dose, median",,unbound Tmax,2.3 h
O=C(COCC(F)F)Nc1ccc(C2CCCCC2)cc1,liver microsome stability,dog liver microsomes,1 µM,,hepatic clearance,29 mL/min/kg
O=C(Nc1nc2cccc(-c3ccc(CN4CCS(=O)(=O)CC4)cc3)n2n1)C1CC1,item: hypotension,human rheumatoid arthritis patients,"oral, 150 mg once daily, 4 weeks, regardless of relatedness",,treatment-emergent adverse events,0%
Nc1ccccc1/C=C/C(=O)c1ccccc1,,toluene,20 °C,,excitation maximum,405 nm
